Assay results gathered from unrelated publications.
A part holds a random share of what one study measured. Positions count from the first letter of the parent shown.

Series 1
Change: L28A
Target: ABI1, truncated, D143A, DHFR fusion (Arabidopsis thaliana)
Method: DHFR PCA, deep sequencing
Medium: yeast
Setting: methotrexate growth selection, single substitutions
Relative to: wild-type fitted maximum
Reading: higher = stronger binding
Parent: PYL1, truncated, DHFR fusion (Arabidopsis thaliana); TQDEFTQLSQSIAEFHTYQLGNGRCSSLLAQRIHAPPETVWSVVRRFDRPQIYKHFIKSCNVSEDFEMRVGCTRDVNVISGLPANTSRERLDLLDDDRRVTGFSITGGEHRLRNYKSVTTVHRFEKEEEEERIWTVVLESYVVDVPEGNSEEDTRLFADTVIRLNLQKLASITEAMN
It gave 83.1% for “relative binding score” (added: (+)-ABA 710 µM).
It gave 2.69% for “relative binding score” (added: (+)-ABA 0 µM).
It gave -0.0719% for “relative binding score” (added: (+)-ABA 0.0091 µM).
It gave 17.8% for “relative binding score” (added: (+)-ABA 17 µM).
added: (+)-ABA 0.032 µM — “relative binding score”: 2.77%.
added: (+)-ABA 2500 µM — “relative binding score”: 82.8%.

Series 2
Target: UBE2W UBC core domain (UniProt Q96B02)
Method: yeast two-hybrid
Medium: yeast
Setting: mostly zero background
Relative to: not given
Reading: higher = stronger interaction
B1: BFAR RING domain (UniProt Q9NZS9); chain GPQISVSEFSCHCCYDILVNPTTLNCGHSFCRHCLALWWASSKKTECPECREKWEGFPKVS
B2: RNF6 RING domain (UniProt Q9Y252); chain NSIDSELGKICSVCISDYVTGNKLRQLPCMHEFHIHCIDRWLSENCTCPICRQPVLGSNIAN
B3: MKRN3 RING domain (UniProt Q13064); chain FAVQRGMDKVCGICMEVVYEKANPNDRRFGILSNCNHSFCIRCIRRWRSARQFENRIVKSCPQCRVTSELVIPSE
B4: RUFY1 RING domain (UniProt Q96T51); chain QALKGHAWLKDDEATHCRQCEKEFSISRRKHHCRNCGHIFCNTCSSNELALPSYPKPVRVCDSCHTLLLQRCSSTAS
Target sequence (chain): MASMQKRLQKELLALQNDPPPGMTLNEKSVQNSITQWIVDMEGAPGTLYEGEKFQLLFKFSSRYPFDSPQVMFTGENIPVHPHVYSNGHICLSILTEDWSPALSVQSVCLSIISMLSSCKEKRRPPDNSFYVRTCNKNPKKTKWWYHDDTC
`B1 (BFAR RING domain)` — result for “lacZ reporter activity”: 0.
`B2 (RNF6 RING domain)`: “lacZ reporter activity” 0.
Under “lacZ reporter activity”, `B3 (MKRN3 RING domain)` is recorded as 0.
`B4 (RUFY1 RING domain)` — result for “lacZ reporter activity”: 0.

Series 3
Target: Interferon regulatory factor 7, full length, phosphomimetic (IRF7, Homo sapiens, UniProt Q92985, residues 1-503, S101K/S471D/S472D/S475D/S476D/S477D/S483D/S484D/S487D)
Chain of UniProt Q92985 (whole entry, unmodified, looked up): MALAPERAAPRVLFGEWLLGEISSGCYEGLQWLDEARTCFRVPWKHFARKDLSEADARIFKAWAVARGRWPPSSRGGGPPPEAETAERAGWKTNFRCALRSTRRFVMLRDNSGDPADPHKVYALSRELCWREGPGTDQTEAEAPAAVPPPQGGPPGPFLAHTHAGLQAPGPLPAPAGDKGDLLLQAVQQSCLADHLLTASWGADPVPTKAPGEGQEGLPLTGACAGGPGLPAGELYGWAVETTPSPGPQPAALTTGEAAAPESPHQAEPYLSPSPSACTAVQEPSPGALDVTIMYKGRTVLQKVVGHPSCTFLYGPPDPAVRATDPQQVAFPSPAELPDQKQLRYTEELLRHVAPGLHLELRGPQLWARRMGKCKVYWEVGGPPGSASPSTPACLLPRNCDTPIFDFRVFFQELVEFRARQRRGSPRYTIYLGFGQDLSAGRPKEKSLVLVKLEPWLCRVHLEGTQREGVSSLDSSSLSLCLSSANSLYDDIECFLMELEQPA
Method: protein-binding microarray
Form: double-stranded DNA, one strand shown
Medium: in vitro
Concentration: 250 nM
Setting: 60-bp whole probe
Added: salmon DNA 0.4 mg/ml
Relative to: random background probes
Reading: higher = stronger binding
All sequences stand within: GCCTAGCAC … GTCTTGATTCGCTTGACGCTGCTG
`CTAAAAATCCCATTAAATTTGTGCTAG` gave a log fluorescence of 0.483 z-score.
With `CACGGACTGGACACTGGGGACGTGCTA` the log fluorescence was -0.813 z-score.
`TTTGCTTTAGTCATTCACTGAGTGCTA` gave a log fluorescence of -0.157 z-score.
`GACGATTTCGAGTTTCGAGACGTGCTA` has a log fluorescence of 4.88 z-score.
With `GACGGTTTGGGGACTGGGGACGTGCTA` the log fluorescence was -0.342 z-score.
For `TTAGGTACCCTTATCCTTTAGTGCTAG`, the log fluorescence was 0.677 z-score.
`GACGGTATCGCGTATCGGGACGTGCTA` gave a log fluorescence of 0.0869 z-score.
With `TCATTATCCTATATCTGACTGTGCTAG` the log fluorescence was 1.38 z-score.

Series 4
Target: Centromere-binding protein 1, full length, His-tagged (CBF1, Saccharomyces cerevisiae, UniProt P17106, residues 1-351)
Chain of UniProt P17106 (whole entry, looked up): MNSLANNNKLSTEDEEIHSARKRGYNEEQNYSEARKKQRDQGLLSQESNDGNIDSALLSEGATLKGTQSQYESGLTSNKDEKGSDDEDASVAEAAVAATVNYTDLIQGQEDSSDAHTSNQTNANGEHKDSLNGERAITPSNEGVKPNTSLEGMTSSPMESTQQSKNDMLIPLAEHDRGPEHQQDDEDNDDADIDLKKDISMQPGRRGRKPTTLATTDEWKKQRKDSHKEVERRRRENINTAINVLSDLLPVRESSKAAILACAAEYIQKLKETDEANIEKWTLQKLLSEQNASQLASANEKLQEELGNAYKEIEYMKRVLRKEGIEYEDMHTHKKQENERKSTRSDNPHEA
Method: competition protein-binding microarray
Form: double-stranded DNA, one strand shown
Medium: in vitro
Concentration: 2 µM
Setting: whole 60-bp probe, lowest competitor level
Added: Pho4 competitor, 0.05 µM
Reading: higher = stronger binding
`TTGGAACCCATACCTCACGTTTGAAATTGACACCCGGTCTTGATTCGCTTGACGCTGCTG` gave a fluorescence intensity of 80.2 a.u.
`ACTACATGCCAGCAGCCCGTGCGGATGCCAAATTTGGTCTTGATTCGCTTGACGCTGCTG` has a fluorescence intensity of 64.7 a.u.
`CGGGGTTAAGTTTTTCACGTGGGGTGCTTGCAGCAGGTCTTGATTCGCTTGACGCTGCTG` gave a fluorescence intensity of 528 a.u.
With `CATACCCAACCTTCCCACGTGTTTTAAGATATTTGTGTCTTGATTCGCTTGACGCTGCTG` the fluorescence intensity was 945 a.u.
With `GCAGGTATGTTTTTCACCGTGAAGATGGACGCATCTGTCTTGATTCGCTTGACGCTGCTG` the fluorescence intensity was 89.6 a.u.
`TGTATAGTAATTTGCCACGTGGGACGCTTAAGAAATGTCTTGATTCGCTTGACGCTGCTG` gave a fluorescence intensity of 1420 a.u.
For `CCGATTGATAACCATCACGCAAAAAAAAAAGATGATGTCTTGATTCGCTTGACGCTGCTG`, the fluorescence intensity was 102 a.u.
The fluorescence intensity of `CTGCCATTCAAGCCAAGCGTGTCTGTATCCAAAAGAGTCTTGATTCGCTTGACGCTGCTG` is reported as 73.8 a.u.

Series 5
Target: HLA class I histocompatibility antigen, A alpha chain, allele A*25:01 (Homo sapiens, UniProt P04439)
Read-out: peptide-MHC binding
Form: peptide
Concentration: concentration not given
`RKLTNPANK`: binding “inactive”.
`EMSLADYLY`: binding “inactive”.
For `DLAQDPMLI`, binding read “inactive”.
Under binding, `QTEPKTSVV` is recorded as “inactive”.
`NTDEIPELI`: binding “inactive”.

Series 6
Target: CCND3, cyclin fold, Cln2 fusion (human)
Method: yeast growth competition, sequencing
Medium: yeast
Setting: weak parent motif
Relative to: not given
Reading: higher = stronger binding
Parent: viral docking peptide; YKVKRRLVFGADD; partner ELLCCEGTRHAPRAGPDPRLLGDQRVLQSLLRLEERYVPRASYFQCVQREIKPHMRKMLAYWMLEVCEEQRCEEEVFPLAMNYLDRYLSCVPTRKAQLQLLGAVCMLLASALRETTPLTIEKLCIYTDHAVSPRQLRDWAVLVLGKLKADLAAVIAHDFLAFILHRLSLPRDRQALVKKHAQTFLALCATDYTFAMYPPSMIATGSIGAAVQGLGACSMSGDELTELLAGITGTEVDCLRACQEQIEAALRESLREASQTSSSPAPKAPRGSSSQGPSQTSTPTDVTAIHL
Under “normalised enrichment score”, `YKVKRRLVFGAVD [D12V]` is recorded as 0.646.
`YKVQRRLVFGADD [K4Q]`: “normalised enrichment score” 0.452.
Under “normalised enrichment score”, `YKVKRRLLFGADD [V8L]` is recorded as 0.119.
`YKVKRGLVFGADD [R6G]`: “normalised enrichment score” 0.0378.
Under “normalised enrichment score”, `YKVKRRLVFGAWD [D12W]` is recorded as -0.0565.
`YKGKRRLVFGADD [V3G]`: “normalised enrichment score” -0.192.
`YKVIRRLVFGADD [K4I]` — result for “normalised enrichment score”: -0.188.
`YKVKRRLVPGADD [F9P]` — result for “normalised enrichment score”: 0.132.
Under “normalised enrichment score”, `YLVKRRLVFGADD [K2L]` is recorded as 0.267.
For `YKVKRRLVFNADD [G10N]`, “normalised enrichment score” read 0.378.
`YKVCRRLVFGADD [K4C]` — result for “normalised enrichment score”: 0.832.
For `YKVKRRLVFGAED [D12E]`, “normalised enrichment score” read -0.244.
`YKVKRRLVCGADD [F9C]` — result for “normalised enrichment score”: 0.519.
Under “normalised enrichment score”, `YKVWRRLVFGADD [K4W]` is recorded as 0.0613.
For `YKVKRRLVFGAMD [D12M]`, “normalised enrichment score” read 0.388.
`YKVKRRLVFYADD [G10Y]` — result for “normalised enrichment score”: 0.136.
For `YKVHRRLVFGADD [K4H]`, “normalised enrichment score” read 0.273.
Under “normalised enrichment score”, `YKVDRRLVFGADD [K4D]` is recorded as 0.025.
`YKVYRRLVFGADD [K4Y]` — result for “normalised enrichment score”: 0.656.
Under “normalised enrichment score”, `YYVKRRLVFGADD [K2Y]` is recorded as 0.0845.
`YKVKRRLRFGADD [V8R]`: “normalised enrichment score” 0.0383.
`YHVKRRLVFGADD [K2H]`: “normalised enrichment score” 0.533.
Under “normalised enrichment score”, `YKVKRELVFGADD [R6E]` is recorded as 0.177.
For `YKVKRRPVFGADD [L7P]`, “normalised enrichment score” read 0.316.
`YKVKTRLVFGADD [R5T]`: “normalised enrichment score” -0.0304.

A few entries again (series 4):
With `GCAGGTATGTTTTTCACCGTGAAGATGGACGCATCTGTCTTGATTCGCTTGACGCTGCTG` the fluorescence intensity was 89.6 a.u.
`TGTATAGTAATTTGCCACGTGGGACGCTTAAGAAATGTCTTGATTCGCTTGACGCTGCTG` gave a fluorescence intensity of 1420 a.u.
`CGGGGTTAAGTTTTTCACGTGGGGTGCTTGCAGCAGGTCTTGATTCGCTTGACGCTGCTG` gave a fluorescence intensity of 528 a.u.
For `CCGATTGATAACCATCACGCAAAAAAAAAAGATGATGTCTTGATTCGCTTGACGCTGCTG`, the fluorescence intensity was 102 a.u.
